Measured values pooled from the literature.
Protocols differ between the studies behind these lines. ± gives the spread as reported.
Organism: SARS-CoV-2

`CC1OC(OC2C(OC(=O)C34CCC(C)(C)CC3C3=CCC5C6(C)CCC(OC7OC(CO)C(O)C(O)C7O)C(C)(C)C6CCC5(C)C3(C)CC4O)OCC(O)C2O)C(O)C(O)C1OC1OCC(O)C(OC2OCC(O)C(O)C2O)C1O` (stereo not shown) gave an IC50 of 640 nM (pseudovirus cell entry, luciferase reporter; NCI-H1299 ACE2-expressing; 24 h).
With `Cc1oc2nc1C(=O)N[C@](C)(C(=O)O)c1nc(c(C)o1)C(=O)N[C@](C)(C(=O)O)c1nc(c(C)o1)C(=O)N[C@]2(C)C(=O)O` the IC50 was 19000 nM (viral replication; Vero E6, NRC-03-nhCoV; 72 h).
`CC1OC(OC2C(OC(=O)C34CCC(C)(C)CC3C3=CCC5C6(C)CCC(O)C(C)(C)C6CCC5(C)C3(C)CC4)OCC(O)C2O)C(O)C(O)C1OC1OCC(O)C(OC2OCC(O)C(O)C2O)C1O` (stereo not shown) has an IC50 of greater than 10000 nM (pseudovirus cell entry, luciferase reporter; NCI-H1299 ACE2-expressing; 24 h).
With `CCCCOP(=O)(O)Oc1c2c(c(OP(=O)(O)OCCCC)c3c1C1CC3c3cc4c(cc31)C1CC4c3ccccc31)C1CC2c2cc3c(cc21)C1CC3c2ccccc21` the IC50 was 14200 nM (spike pseudoparticle entry; Caco-2).
For `COc1ccc2nc3ccc(F)cc3c(Nc3cc(CN4CCCC4)c(O)c(CN4CCCC4)c3)c2c1`, the IC50 was 1840 nM (viral replication; U2OS, BetaCoV/France/IDF0372/2020).
`Cc1oc2nc1C(=O)N[C@](C)(C(=O)NCCc1ccc(N(C)C)cc1)c1nc(c(C)o1)C(=O)N[C@](C)(C(=O)NCCc1ccc(N(C)C)cc1)c1nc(c(C)o1)C(=O)N[C@]2(C)C(=O)NCCc1ccc(N(C)C)cc1` has an IC50 of 63300 nM (viral replication; Vero E6, NRC-03-nhCoV; 72 h).
For `COc1ccc2nc3ccc(Cl)cc3c(Nc3cc(CN4CCCC4)c(O)c(CN4CCCC4)c3)c2c1`, the IC50 was 1880 nM (viral replication; U2OS, BetaCoV/France/IDF0372/2020).
For `O=C(Nc1ccc([N+](=O)[O-])cc1Cl)c1cc(Cl)ccc1O`, the IC50 was 130 nM (viral replication; Vero E6, wild type).
`Cc1ccc(N2CC3CC(C2)N3)cc1C(=O)NC1(c2ccc3c4c(cccc24)C(=O)N3C)CC1` has an IC50 of 45.3 ± 1.4 nM (viral replication; Vero C1008, XBB.1).
`COc1ccc2nc3cc(Cl)ccc3c(Nc3ccc(O)c(CN4CCCC4)c3)c2n1` has an IC50 of 1960 nM (viral replication; U2OS, BetaCoV/France/IDF0372/2020).
`Cc1ccc(N2CC(N3CCC(C)(O)CC3)C2)cc1C(=O)NC1(c2ccc3c4c(cccc24)CC3)CC1` gave an IC50 of 155 ± 10 nM (viral replication; Vero C1008, XBB.1).
The IC50 of `CC(C)CC(=O)OC1C=CC=CC(=O)OC2C(C)CC3C2(O)C(O)C2(C)OC2C2C4OC5(c6ccccc6)OC(C(C)C23O5)C4(O)C(C)(O)CC2CCC1C2C` (stereo not shown) is reported as 60 nM (viral replication; Vero E6).
With `CC1(C)CC[C@]2(C(=O)O)CC[C@]3(C)C(=CC[C@@H]4[C@@]5(C)CC[C@H](O[C@@H]6O[C@H](CO)[C@@H](O)[C@H](O)[C@H]6O)C(C)(C)[C@@H]5CC[C@]43C)[C@@H]2C1` the IC50 was greater than 10000 nM (pseudovirus cell entry, luciferase reporter; NCI-H1299 ACE2-expressing; 24 h).
With `Cc1cc(C)n(-c2nc(-c3ccccc3)cc(=O)n2CC(=O)Nc2cccc([N+](=O)[O-])c2)n1` the IC50 was 400 nM (cytopathic effect, live virus; Omicron BA.4).
The IC50 of `O=P(O)(OCc1ccccc1)Oc1c2c(c(OP(=O)(O)OCc3ccccc3)c3c1C1CC3c3cc4c(cc31)C1CC4c3ccccc31)C1CC2c2cc3c(cc21)C1CC3c2ccccc21` is reported as 1800 nM (spike pseudoparticle entry; Caco-2).
The IC50 of `CCN(CC)CCCC(C)Nc1c2ccc(Cl)cc2nc2ccc(OC)nc12` (stereo not shown) is reported as 1270 nM (viral replication; U2OS, BetaCoV/France/IDF0372/2020).
The IC50 of `C#CCOP(=O)(O)Oc1c2c(c(OP(=O)(O)OCC#C)c3c1C1CC3c3cc4c(cc31)C1CC4c3ccccc31)C1CC2c2cc3c(cc21)C1CC3c2ccccc21` is reported as 13700 nM (spike pseudoparticle entry; Caco-2).
`CC[C@@]1(O)C[C@H](O[C@H]2C[C@H](N(C)C)[C@H](O[C@H]3C[C@H](O)[C@H](O[C@H]4CCC(=O)[C@H](C)O4)[C@H](C)O3)[C@H](C)O2)c2c(cc3c(c2O)C(=O)c2c(O)cccc2C3=O)[C@H]1C(=O)OC` has an IC50 of 56 nM (viral replication, RT-qPCR, refers to: viral RNA in supernatant; Calu-3, RIM-1).
`CC(C)OP(=O)(O)Oc1c2c(c(OP(=O)(O)OC(C)C)c3c1C1CC3c3cc4c(cc31)C1CC4c3ccccc31)C1CC2c2cc3c(cc21)C1CC3c2ccccc21` has an IC50 of 29200 nM (spike pseudoparticle entry; Caco-2).
The IC50 of `Oc1c(CN2CCCC2)cc(Nc2c3cc(Cl)ccc3nc3ccc(Cl)cc23)cc1CN1CCCC1` is reported as 1760 nM (viral replication; U2OS, BetaCoV/France/IDF0372/2020).
`C#CCCCOP(=O)(O)Oc1c2c(c(OP(=O)(O)OCCCC#C)c3c1C1CC3c3cc4c(cc31)C1CC4c3ccccc31)C1CC2c2cc3c(cc21)C1CC3c2ccccc21` has an IC50 of 15300 nM (spike pseudoparticle entry; Caco-2).
For `CCC(CC)COC(=O)[C@H](C)N[P@](=O)(OC[C@H]1O[C@@](C#N)(c2ccc3c(N)ncnn23)[C@H](O)[C@@H]1O)Oc1ccccc1`, the IC50 was 45 nM (viral replication, RT-qPCR, refers to: viral RNA in supernatant; Calu-3, SA).
For `CC(C)COP(=O)(O)Oc1c2c(c(OP(=O)(O)OCC(C)C)c3c1C1CC3c3cc4c(cc31)C1CC4c3ccccc31)C1CC2c2cc3c(cc21)C1CC3c2ccccc21`, the IC50 was 24300 nM (spike pseudoparticle entry; Caco-2).
The IC50 of `Oc1c(CN2CCCC2)cc(Nc2c3ccc(Cl)cc3nc3ccc(Cl)cc23)cc1CN1CCCC1` is reported as 570 nM (viral replication; U2OS, BetaCoV/France/IDF0372/2020).
`CC=CCCCCOP(=O)(O)Oc1c2c(c(OP(=O)(O)OCCCCC=CC)c3c1C1CC3c3cc4c(cc31)C1CC4c3ccccc31)C1CC2c2cc3c(cc21)C1CC3c2ccccc21` has an IC50 of 14000 nM (spike pseudoparticle entry; Caco-2).
`CCCCCCCCCCCC1CC(=O)NC(CC(N)=O)C(=O)NC(Cc2ccc(O)cc2)C(=O)NC(CC(N)=O)C(=O)NC(CCC(N)=O)C(=O)N2CCCC2C(=O)NC(CC(N)=O)C(=O)NC(CO)C(=O)N1` (stereo not shown) has an IC50 of 11.1 ± 2 µg/mL (viral replication; Vero; 24 h).
`O=c1c2ccccc2[se]n1-c1ccncc1F` has an IC50 of 8230 nM.
For `COP(=O)(O)Oc1c2c(c(OP(=O)(O)OC)c3c1C1CC3c3cc4c(cc31)C1CC4c3ccccc31)C1CC2c2cc3c(cc21)C1CC3c2ccccc21`, the IC50 was 23600 nM (spike pseudoparticle entry; Caco-2).

Excerpt of the above:
With `Cc1cc(C)n(-c2nc(-c3ccccc3)cc(=O)n2CC(=O)Nc2cccc([N+](=O)[O-])c2)n1` the IC50 was 400 nM (cytopathic effect, live virus; Omicron BA.4).
The IC50 of `O=P(O)(OCc1ccccc1)Oc1c2c(c(OP(=O)(O)OCc3ccccc3)c3c1C1CC3c3cc4c(cc31)C1CC4c3ccccc31)C1CC2c2cc3c(cc21)C1CC3c2ccccc21` is reported as 1800 nM (spike pseudoparticle entry; Caco-2).
The IC50 of `CCN(CC)CCCC(C)Nc1c2ccc(Cl)cc2nc2ccc(OC)nc12` (stereo not shown) is reported as 1270 nM (viral replication; U2OS, BetaCoV/France/IDF0372/2020).
